{"data": "Measured values of several laboratories", "HTR7": "5-hydroxytryptamine receptor 7 (HTR7, Homo sapiens, UniProt P34969)", "ESR2": "Estrogen receptor beta (ESR2, Homo sapiens, UniProt Q92731)", "note": "Protocols differ between the studies behind these lines. Several values in a cell are separate wells, animals, samples, runs or records. ± gives the spread as reported."}
{"Compound": "NCCCCC(=O)O", "tested on": "SLC6A6 (Homo sapiens, UniProt P31641, G62A)", "assay": "binding, microscale thermophoresis", "setting": "500 µM, room temperature, with: 50 nM labelled protein", "how to read": "higher = more binding", "endpoint": "normalised MST signal", "result": -0.00417}
{"Compound": "[O-][S+]1CCCCS1 (centres unmarked)", "tested on": "SOD1 (Homo sapiens, UniProt P00441, G94A)", "assay": "LC-MS", "test system": "brain homogenate", "setting": "1 µM, 1 h, 37 °C", "endpoint": "SOD1 dimer fraction", "result": "0.35%"}
{"Compound": "NC(=O)c1ccc[n+]([C@@H]2O[C@H](COP(=O)([O-])OP(=O)(O)OC[C@H]3O[C@@H](n4cnc5c(NCCNC(=O)CCCCCNC(=O)CCCCCNC(=O)CCCC[C@@H]6SC[C@@H]7NC(=O)N[C@@H]76)ncnc54)[C@H](O)[C@@H]3O)[C@@H](O)[C@H]2O)c1", "tested on": "PARP6 (Homo sapiens, UniProt Q2NL67)", "assay": "substrate, DELFIA auto-modification", "endpoint": "apparent Km", "result": "5 µM"}
{"Compound": "O=C(O)C(=O)C(C(=O)O)C(O)C(=O)O (centres unmarked)", "tested on": "Uncharacterized protein (Pelagibacter ubique, UniProt Q4FKX4)", "assay": "differential scanning fluorimetry", "test system": "Candidatus Pelagibacter ubique", "setting": "in-house screen", "endpoint": "thermal shift", "result": "4.48 °C"}
{"Compound": "Clc1cccc(OC[C@H]2CN(CCN3CCc4ccccc43)CCO2)c1", "tested on": "HTR7", "assay": "radioligand binding", "setting": "concentration not given, with: [3H]LSD", "endpoint": "inhibition", "result": "43.8%"}
{"Compound": "Nc1ncnc2c1ncn2[C@@H]1O[C@H](CO[P@](=O)(O)O[P@](=O)(O)O[P@@](=O)(O)S)[C@@H](O)[C@H]1O", "tested on": "GUK1 (Homo sapiens, UniProt Q16774, K17A)", "assay": "binding, ITC", "endpoint": "ΔG", "result": "-5.26 kcal/mol"}
{"Compound": "CC1(C)CC2(C)OC(=O)NC2(C)c2ccccc21 (centres unmarked)", "tested on": "Histone acetyltransferase type B catalytic subunit (Homo sapiens, UniProt O14929)", "assay": "binding, affinity selection mass spectrometry", "how to read": "baseline: other proteins in batch", "endpoint": "log fold enrichment", "result": -0.248}
{"Compound": "CC(=O)OCC[N+](C)(C)C", "tested on": "CHRNB4/CHRNA6 (Homo sapiens, UniProt P30926+Q15825, E185A)", "assay": "two-electrode voltage clamp", "test system": "Xenopus oocytes", "setting": "α6β4 E155A mutant", "how to read": "baseline: wild type", "endpoint": "current", "result": "decreased"}
{"Compound": "O=c1nc(SCc2cc(F)cc(C(F)(F)F)c2)nc(SCc2ccc3sccc3c2)[nH]1", "tested on": "TOP2A (Homo sapiens, UniProt P11388)", "assay": "ATPase activity", "setting": "1.95 µM, with: ATP 0.25 mM", "endpoint": "ATP hydrolysis rate", "result": "1.42 µM/min and 2.12 µM/min"}
{"Compound": "CC[C@H](C)[C@H](NC(=O)[C@H](CC(=O)O)NC(=O)[C@H](CCC(=O)O)NC(=O)[C@@H](N)CC(N)=O)C(=O)N[C@@H](CC(=O)O)C(=O)N[C@@H](CCC(N)=O)C(=O)N[C@@H](CCSC)C(=O)N[C@@H](Cc1ccccc1)C(=O)N[C@@H](CO)C(=O)N[C@H](C(=O)N[C@@H](CC(C)C)C(=O)N[C@@H](CC(C)C)C(=O)NCC(=O)N[C@@H](CCC(=O)O)C(=O)N[C@@H](CCSC)C(=O)N[C@@H](CC(=O)O)C(=O)N[C@@H](CC(C)C)C(=O)N[C@@H](CC(C)C)C(=O)N[C@H](C(=O)N[C@@H](CCC(N)=O)C(=O)N[C@@H](CO)C(=O)O)[C@@H](C)O)[C@@H](C)O", "tested on": "Talin-1, with integrin beta3 (Tln1, Mus musculus, UniProt P26039)", "assay": "inhibitor, fluorescence polarization", "endpoint": "β3-talin head domain interaction", "result": "no inhibition"}
{"Compound": "COc1cc(C2Oc3cc([C@H]4Oc5cc(O)cc(O)c5C(=O)[C@@H]4O)ccc3OC2CO)ccc1O (some centres unmarked)", "tested on": "ESR2", "assay": "array formation, agonist", "test system": "GFP-ERβ PRL-HeLa", "setting": "1 h", "endpoint": "EC50", "result": "3920 nM"}
{"Compound": "C[C@H](O)c1ccc(NS(=O)(=O)c2ccc(OCC3CCC3)c(Cl)c2)c2nn(C)cc12", "tested on": "17-beta-hydroxysteroid dehydrogenase 13 (Homo sapiens, UniProt Q7Z5P4)", "assay": "substrate, NADH fluorescence", "endpoint": "Km", "result": "68 µM"}
{"Compound": "C[C@@H](O)CNC(C)(C)CC(=O)N[C@@H]1CCc2ccccc2N(Cc2ccc(-c3ccccc3-c3nn[nH]n3)cc2)C1=O", "tested on": "GHSR (Homo sapiens, UniProt Q92847)", "assay": "β-arrestin 2 recruitment, NanoBiT", "test system": "HEK293T", "endpoint": "Emax", "result": "92.4 ± 3.8%"}
{"Compound": "Cc1ccc(OC[C@@H]2CN(CCN3CCc4ccccc43)CCO2)cn1", "tested on": "HTR7", "assay": "radioligand binding", "setting": "concentration not given, with: [3H]LSD", "endpoint": "inhibition", "result": "23.5%"}
{"Compound": "NC(=O)C1=CN([C@@H]2O[C@H](COP(=O)(O)OP(=O)(O)OC[C@H]3O[C@@H](n4cnc5c(N)ncnc54)[C@H](O)[C@@H]3O)[C@@H](O)[C@H]2O)C=CC1", "tested on": "FSP1, ancestral", "assay": "substrate", "setting": "co-substrate fixed", "endpoint": "Km", "result": "13.9 ± 2.39 µM"}
{"Compound": "Cc1ccc(C(=O)C(C)CN2CCCCC2)cc1 (centres unmarked)", "tested on": "Nedd8-cullin1 interaction", "assay": "neddylation, AlphaScreen", "setting": "100 µM", "endpoint": "inhibition", "result": "23.5%"}
{"Compound": "N#Cc1ccc2[nH]cc(CCCCN3CCN(c4ccc5oc(C(N)=O)cc5c4)CC3)c2c1", "tested on": "SLC6A4 (Homo sapiens, UniProt P31645)", "assay": "serotonin uptake, inhibitor", "test system": "COS-7 expressing SLC6A4", "setting": "30 min preincubation, with: [3H]5-HT", "endpoint": "Hill coefficient", "result": "2.08 ± 0.4"}
{"Compound": "O=C1Nc2c(ccc(Cl)c2Cl)C1=NO", "tested on": "KCNN4/CALM1 (Homo sapiens, UniProt O15554+P0DP23)", "assay": "activator, whole-cell patch clamp", "test system": "HEK293", "setting": "with: free calcium 250 nM", "endpoint": "Hill coefficient", "result": 1.3}
{"Compound": "CCCCCC(O)C(CC=O)SC[C@H](NC(C)=O)C(=O)O (some centres unmarked)", "tested on": "N-acyl-aromatic-L-amino acid amidohydrolase (carboxylate-forming) (Acy3, Mus musculus, UniProt Q91XE4)", "assay": "substrate, fluorescamine", "setting": "with: Co2+ 0.1 mM", "endpoint": "Km", "result": "530 µM"}
{"Compound": "Nc1ccc(C(=O)O)cc1", "tested on": "BEST1, with wild-type BEST1 (Homo sapiens, UniProt O76090, L234P)", "assay": "ion current, whole-cell patch clamp", "test system": "HEK293 co-expressing mutant and wild-type", "setting": "concentration not given, voltage -80 mV", "endpoint": "current density", "result": "-41.7 pA/pF and -6.74 pA/pF and -12.3 pA/pF and -20.7 pA/pF and -17.2 pA/pF and -10.8 pA/pF"}
{"Compound": "CNS(=O)(=O)Cc1ccc2[nH]cc(CCN(C)C)c2c1", "tested on": "TDP1 (Homo sapiens, UniProt Q9NUW8)", "assay": "binding, small molecule microarray", "setting": "with: AF647-labelled TDP1 1 µM", "how to read": "direction not given", "endpoint": "Z score", "result": 3.18}
{"Compound": "N#Cc1ccc2c(-c3ccncc3)c(-c3ccc(F)cc3)nn2c1", "tested on": "Protein kinase C-like 1 (Candida albicans, UniProt P43057)", "assay": "kinase binding, competitor, MIB/MS competition, item: PKC1", "test system": "Candida albicans cell lysate", "setting": "100 nM", "how to read": "baseline: DMSO", "endpoint": "log2 fold change", "result": -0.196}
{"Compound": "Cc1[nH]c(=O)c(C#N)cc1-c1ccncc1", "tested on": "Nedd8-cullin1 interaction", "assay": "neddylation, AlphaScreen", "setting": "100 µM", "endpoint": "inhibition", "result": "2.1%"}
{"Compound": "Nc1ncnc2c1ncn2[C@@H]1O[C@H](COP(=O)(O)CP(=O)(O)OP(=O)(O)O)[C@@H](O)[C@H]1O", "tested on": "P2X purinoceptor 1 (P2RX1, Homo sapiens, UniProt P51575, D170A)", "assay": "saturation binding", "test system": "HEK293", "setting": "25 nM", "endpoint": "specific binding", "result": "71.5 CCPM and 156 CCPM and 55 CCPM"}
{"Compound": "CN(C)C(=O)CCSC(SCCC(=O)O)c1cccc(/C=C/c2ccc3ccc(Cl)cc3n2)c1 (centres unmarked)", "tested on": "UGT1A1 (Homo sapiens, UniProt P22309)", "assay": "glucuronidation, inhibitor", "test system": "cell lysate", "setting": "25 µM, with: genistein", "endpoint": "genistein glucuronide formation", "result": "decreased"}
{"Compound": "[Cl-].[K+]", "tested on": "GUK1 (Homo sapiens, UniProt Q16774)", "assay": "enzyme activity, NADH-coupled", "setting": "60 mM", "endpoint": "reaction velocity", "result": "-0.024 µM/s and 0.0298 µM/s and 0.0236 µM/s"}
{"Compound": "COc1cccc(OC[C@H]2CN(CCN3CCc4ccccc43)CCO2)c1", "tested on": "HTR2C (Homo sapiens, UniProt P28335)", "assay": "radioligand binding", "setting": "concentration not given, with: [3H]mesulergine", "endpoint": "inhibition", "result": "3.1%"}
{"Compound": "O=C(O)CC[C@H](NC(=O)N[C@@H](CCCCNC(=O)[C@H](Cc1ccc2ccccc2c1)NC(=O)CCCCCNC(=O)CN1CCN(CC(=O)O)CCN(CC(=O)O)CCN(CC(=O)O)CC1)C(=O)O)C(=O)O [gallium-68 labelled]", "assay": "PET/CT", "test system": "mouse, 22Rv1 xenograft, tumour", "setting": "intravenous, 3.7 MBq, 1 h", "endpoint": "SUVmean", "result": "1.09 ± 0.07 SUV"}
{"Compound": "C1=C/COCc2cc(ccc2OCCN2CCCC2)Nc2nccc(n2)-c2cccc(c2)COC/1", "tested on": "MAP3K13 (Homo sapiens, UniProt O43283)", "setting": "concentration not given, kinase construct LZK", "how to read": "baseline: control", "endpoint": "binding", "result": "61%"}
{"Compound": "O=c1c(O[C@@H]2O[C@H](CO)[C@@H](O)[C@H](O)[C@H]2O)c(-c2ccc(O)c(O)c2)oc2cc(O)cc(O)c12", "tested on": "ESR2", "assay": "array formation, agonist", "test system": "GFP-ERβ PRL-HeLa", "setting": "1 h", "endpoint": "EC50", "result": "1520 nM"}
{"Compound": "Nc1ccc2cc3ccc(N)cc3nc2c1", "tested on": "Chymotrypsinogen A, activated (alpha-chymotrypsin) (Bos taurus, UniProt P00766)", "assay": "isothermal titration calorimetry", "setting": "25 °C, with: 0.5 M N,N-dimethylglycine", "endpoint": "binding Gibbs energy", "result": "-5.712 ± 0.0239 kcal/mol"}
{"Compound": "Nc1nc2c(ncn2[C@@H]2O[C@H](COP(=O)(O)O)[C@@H](O)[C@H]2O)c(=O)[nH]1", "tested on": "GUK1 (Homo sapiens, UniProt Q16774, R44A)", "assay": "enzyme activity, NADH-coupled", "setting": "1000 µM", "endpoint": "reaction rate", "result": "0.696 s⁻¹ and -0.00766 s⁻¹ and -0.712 s⁻¹"}
{"Compound": "CCN1CCC[C@H]1CNC(=O)c1c(O)c(Cl)cc(Cl)c1OC", "tested on": "G-protein coupled receptor 151 (GPR151, Homo sapiens, UniProt Q8TDV0)", "assay": "β-arrestin recruitment, TANGO luminescence, item: GPR151", "setting": "concentration not given", "how to read": "baseline: basal luminescence", "endpoint": "log2 fold change", "result": 0.52}
{"Compound": "Cc1ncsc1-c1ccc([C@H](C)NC(=O)[C@@H]2C[C@@H](O)CN2C(=O)[C@@H](NC(=O)CCCCCCCCC(=O)N(CCO)CCCOc2ccc3c(Nc4cc(CC(=O)Nc5cccc(F)c5)[nH]n4)ncnc3c2)C(C)(C)C)cc1", "tested on": "Aurora kinase B (AURKB, Homo sapiens, UniProt Q96GD4)", "assay": "degrader, western blot", "test system": "HPAF-II cells", "setting": "1 µM", "endpoint": "onset of significant degradation", "result": "2 h"}
{"Compound": "C=CC(=O)N1CCC(COCC(=O)N2CCN(c3nc(-c4cnc(N)nc4C(F)F)nc(N4CCOC[C@@H]4C)n3)CC2)CC1", "tested on": "CAMK2B (Homo sapiens, UniProt Q13554)", "assay": "KINOMEscan", "setting": "1 µM", "endpoint": "remaining binding", "result": "100%"}
{"note": "Some of these lines once more:"}
{"Compound": "Clc1cccc(OC[C@H]2CN(CCN3CCc4ccccc43)CCO2)c1", "tested on": "HTR7", "assay": "radioligand binding", "setting": "concentration not given, with: [3H]LSD", "endpoint": "inhibition", "result": "43.8%"}
{"Compound": "N#Cc1ccc2[nH]cc(CCCCN3CCN(c4ccc5oc(C(N)=O)cc5c4)CC3)c2c1", "tested on": "SLC6A4 (Homo sapiens, UniProt P31645)", "assay": "serotonin uptake, inhibitor", "test system": "COS-7 expressing SLC6A4", "setting": "30 min preincubation, with: [3H]5-HT", "endpoint": "Hill coefficient", "result": "2.08 ± 0.4"}
